# Published values pooled from the literature.
# Each numbered part is a random draw from the data of one study; scales do not carry over between parts.

# Study 1
# Target: Sal-like protein 4, full length isoform B (SALL4, Homo sapiens, UniProt Q9UJQ4-2, residues 1-616)
# Method: universal PBM
# Molecule type: double-stranded DNA, one strand shown
# Matrix: in vitro
# Concentration: not given
# Notes: 8-mer, flanks averaged, mean of replicates
# Reading: higher = stronger binding
# Target sequence (chain): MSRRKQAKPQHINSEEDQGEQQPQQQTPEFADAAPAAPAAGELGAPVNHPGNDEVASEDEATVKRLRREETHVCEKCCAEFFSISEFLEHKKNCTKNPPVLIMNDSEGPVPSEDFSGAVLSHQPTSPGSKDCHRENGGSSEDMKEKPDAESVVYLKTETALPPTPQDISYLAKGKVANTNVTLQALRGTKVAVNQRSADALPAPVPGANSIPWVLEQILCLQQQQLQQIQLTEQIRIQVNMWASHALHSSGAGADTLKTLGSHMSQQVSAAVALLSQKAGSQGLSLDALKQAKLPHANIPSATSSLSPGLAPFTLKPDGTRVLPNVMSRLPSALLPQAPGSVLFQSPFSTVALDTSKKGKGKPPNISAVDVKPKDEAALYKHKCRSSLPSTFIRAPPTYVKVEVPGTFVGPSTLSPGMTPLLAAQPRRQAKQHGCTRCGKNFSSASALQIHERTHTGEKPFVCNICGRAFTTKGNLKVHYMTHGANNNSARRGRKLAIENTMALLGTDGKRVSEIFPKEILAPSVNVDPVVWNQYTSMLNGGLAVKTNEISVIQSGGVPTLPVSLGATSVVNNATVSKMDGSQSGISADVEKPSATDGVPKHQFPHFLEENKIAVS
Sequence,E-score
CGTGCTCA,-0.117
CTTACCTC,-0.16
CCTTTAGA,0.0691
CCCCCTGA,-0.295

# Study 2
# Target: Histone acetyltransferase KAT6A, both winged helices, GST fusion (KAT6A, Homo sapiens, UniProt Q92794, residues 1-181)
# Method: protein binding microarray
# Molecule type: double-stranded DNA, one strand shown
# Matrix: in vitro
# Concentration: not given
# Notes: 8-mer, flanks averaged, mean of 2 arrays, mostly near background
# Baseline: not given
# Reading: higher = stronger binding
# Target sequence (chain): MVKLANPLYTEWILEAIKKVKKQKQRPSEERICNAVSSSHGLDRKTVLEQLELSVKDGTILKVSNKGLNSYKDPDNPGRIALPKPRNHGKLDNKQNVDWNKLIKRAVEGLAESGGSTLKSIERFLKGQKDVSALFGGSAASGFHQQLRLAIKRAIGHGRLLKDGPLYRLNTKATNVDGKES
Sequence,E-score
CGATATAG,0.0741
AGGCGCTA,0.12
CTGTTAAC,0.0209
CTACCGAA,-0.0155

# Study 3
# Target: Prothrombin, mature alpha-thrombin (F2, Homo sapiens, UniProt P00734)
# Method: aptamer microarray, sandwich
# Molecule type: DNA with 2'F-ANA
# Matrix: in vitro
# Concentration: 200 nM
# Notes: whole 15-mer aptamer, many near background
# With: Cy3 exosite-II aptamer, 400 nM
# Reading: higher = stronger binding
Sequence,mean fluorescence intensity [a.u.]
GGTTGGTGTGGTTGG (2'F-ANA at 2 3 4 6 9 12 13 14 15),221
GGTTGGTGTGGTTGG (2'F-ANA at 1 2 4 5 7 9 12 13 14),48.6
GGTTGGTGTGGTTGG (2'F-ANA at 2 3 5 9 11 12 13),133
GGTTGGTGTGGTTGG (2'F-ANA at 1 3 4 5 6 7 8 9 10 15),48.8

# Mixed results
Molecule,target,assay,system,conditions,how to read,measurement,result
"PhoQ, residues 284 288 289 292 302 303 AGCYAI","PhoP, residues 12 14 15 18 19 DLLYY (Escherichia coli, UniProt P23836)","Sort-seq, refers to: YFP reporter",E. coli,"PhoQ-PhoP variant library, with: 10 µM Mg2+","baseline: high Mg2+ state, higher = stronger signaling",fold induction,3.46

# Repeated from above (study 3):
Sequence,mean fluorescence intensity [a.u.]
GGTTGGTGTGGTTGG (2'F-ANA at 2 3 5 9 11 12 13),133
